Published values of several laboratories.
Numbered parts are unrelated; each lists some results of a single study. Changes are numbered by the printed parent chain.
Chain of UniProt O15294 (whole entry, looked up): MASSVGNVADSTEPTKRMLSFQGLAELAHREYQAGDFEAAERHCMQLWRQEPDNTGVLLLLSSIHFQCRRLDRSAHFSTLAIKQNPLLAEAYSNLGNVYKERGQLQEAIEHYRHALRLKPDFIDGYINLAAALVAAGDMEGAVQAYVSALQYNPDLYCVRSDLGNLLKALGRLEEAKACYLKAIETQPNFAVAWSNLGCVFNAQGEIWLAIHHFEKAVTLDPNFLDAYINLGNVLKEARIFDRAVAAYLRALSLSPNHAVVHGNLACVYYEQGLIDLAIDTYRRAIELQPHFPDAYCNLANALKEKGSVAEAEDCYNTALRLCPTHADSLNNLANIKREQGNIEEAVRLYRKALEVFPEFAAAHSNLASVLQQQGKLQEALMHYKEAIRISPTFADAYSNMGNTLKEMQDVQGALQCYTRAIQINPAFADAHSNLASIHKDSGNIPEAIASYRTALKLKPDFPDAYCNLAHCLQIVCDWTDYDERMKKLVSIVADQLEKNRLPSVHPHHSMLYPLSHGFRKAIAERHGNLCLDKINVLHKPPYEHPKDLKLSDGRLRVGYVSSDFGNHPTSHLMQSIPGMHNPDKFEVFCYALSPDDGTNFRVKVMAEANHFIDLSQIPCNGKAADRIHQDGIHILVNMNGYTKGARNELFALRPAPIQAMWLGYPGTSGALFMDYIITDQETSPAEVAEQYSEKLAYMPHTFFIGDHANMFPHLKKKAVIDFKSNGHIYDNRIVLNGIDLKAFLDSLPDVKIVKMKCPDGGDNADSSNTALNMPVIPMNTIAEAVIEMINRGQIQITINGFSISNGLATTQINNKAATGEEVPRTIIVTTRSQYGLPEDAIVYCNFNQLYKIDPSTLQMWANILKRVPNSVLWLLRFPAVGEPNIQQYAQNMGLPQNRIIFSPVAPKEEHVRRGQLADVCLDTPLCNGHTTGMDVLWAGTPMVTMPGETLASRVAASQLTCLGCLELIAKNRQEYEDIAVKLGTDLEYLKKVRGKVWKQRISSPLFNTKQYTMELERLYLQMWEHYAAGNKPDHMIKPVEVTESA

Block 1
Target: Histone acetyltransferase KAT6A, winged helix 1, GST fusion (KAT6A, Homo sapiens, UniProt Q92794, residues 1-85)
Method: protein binding microarray
Molecule type: double-stranded DNA, one strand shown
Sample: in vitro
Tested at: not given
Notes: 8-mer, flanks averaged, mean of 2 arrays, mostly near background
Reference: not given
Reading: higher = stronger binding
Residues (chain): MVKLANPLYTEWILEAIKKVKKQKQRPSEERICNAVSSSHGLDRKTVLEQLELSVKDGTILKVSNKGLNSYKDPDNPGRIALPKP
The E-score of `ACGGTGCC` is reported as 0.35.
`CGGTAACA` gave an E-score of 0.272.
With `GCCTCTCA` the E-score was -0.236.
`ACTCGTGG` gave an E-score of -0.165.
The E-score of `CAGCGGGG` is reported as 0.292.
The E-score of `ATATTCGC` is reported as -0.0976.
`ACATGTTC` gave an E-score of -0.103.
`AAGCAATC` has an E-score of -0.107.

Block 2
Target: CCNE2, cyclin fold, Cln2 fusion (human)
Method: yeast growth competition, sequencing
Sample: yeast
Notes: weak parent motif
Reference: not given
Reading: higher = stronger binding
Starting sequence: ORC1 docking peptide (human); PRARKRLELGNLG; partner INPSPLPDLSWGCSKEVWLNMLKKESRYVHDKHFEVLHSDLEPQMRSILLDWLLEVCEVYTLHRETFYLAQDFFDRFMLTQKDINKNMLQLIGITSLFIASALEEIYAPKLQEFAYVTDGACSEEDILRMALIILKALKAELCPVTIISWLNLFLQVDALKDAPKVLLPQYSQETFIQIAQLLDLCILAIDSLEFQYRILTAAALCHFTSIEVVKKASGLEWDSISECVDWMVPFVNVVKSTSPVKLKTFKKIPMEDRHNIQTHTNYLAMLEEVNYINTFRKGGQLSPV
`PRARKRLELGNLM [G13M]`: “normalised enrichment score” 1.81.
Under “normalised enrichment score”, `PRARKRLELTNLG [G10T]` is recorded as -0.161.
For `PRARNRLELGNLG [K5N]`, “normalised enrichment score” read 0.393.
Under “normalised enrichment score”, `PRMRKRLELGNLG [A3M]` is recorded as 2.31.
`PRARKRLELGLLG [N11L]`: “normalised enrichment score” 1.05.
Under “normalised enrichment score”, `PRARKRLENGNLG [L9N]` is recorded as 0.239.
`PRARHRLELGNLG [K5H]` — result for “normalised enrichment score”: 0.306.
`HRARKRLELGNLG [P1H]`: “normalised enrichment score” 0.398.

Block 3
Target: Sal-like protein 4, full length isoform B (SALL4, Homo sapiens, UniProt Q9UJQ4-2, residues 1-616)
Method: universal PBM
Molecule type: double-stranded DNA, one strand shown
Sample: in vitro
Tested at: not given
Notes: 8-mer, flanks averaged, mean of replicates
Reading: higher = stronger binding
Target sequence (chain): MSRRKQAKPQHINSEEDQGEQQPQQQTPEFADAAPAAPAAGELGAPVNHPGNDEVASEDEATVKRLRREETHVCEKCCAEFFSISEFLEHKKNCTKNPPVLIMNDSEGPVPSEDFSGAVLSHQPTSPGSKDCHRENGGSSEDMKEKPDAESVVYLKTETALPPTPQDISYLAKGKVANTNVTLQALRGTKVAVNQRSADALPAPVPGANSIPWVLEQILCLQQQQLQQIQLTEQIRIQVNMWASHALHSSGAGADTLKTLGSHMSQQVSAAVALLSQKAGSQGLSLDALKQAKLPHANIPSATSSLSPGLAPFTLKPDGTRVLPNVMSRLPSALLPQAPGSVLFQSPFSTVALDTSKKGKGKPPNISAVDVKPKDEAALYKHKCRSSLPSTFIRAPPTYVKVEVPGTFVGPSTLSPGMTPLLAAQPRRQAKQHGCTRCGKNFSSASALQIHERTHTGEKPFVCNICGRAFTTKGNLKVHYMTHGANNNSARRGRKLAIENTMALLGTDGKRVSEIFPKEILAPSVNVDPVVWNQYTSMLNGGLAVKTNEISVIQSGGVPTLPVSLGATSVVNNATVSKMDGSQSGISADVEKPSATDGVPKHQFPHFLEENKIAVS
For `CGATCCTC`, the E-score was -0.179.
The E-score of `GAGGACTA` is reported as 0.00559.
For `AGAAATAA`, the E-score was 0.33.
With `AAGAAAGG` the E-score was 0.059.
The E-score of `AAGGAGGT` is reported as 0.00446.
With `TCCCCAAA` the E-score was 0.154.
`AGTTATCG` has an E-score of 0.195.
With `GTAACTGA` the E-score was 0.0513.

Single results of other studies
Under “enrichment fold change”, `HMKHMAIAMGGHFHT` is recorded as 3.85 (UDP-N-acetylglucosamine--peptide N-acetylglucosaminyltransferase 110 kDa subunit (OGT, Homo sapiens, UniProt O15294); binding, phage display NGS; peptide; concentration not given; reference: input library).
